Results of several laboratories.
Lines come from different studies, so protocols differ. “And” joins repeats or separate records; there may be more than shown. Numbers after ± are the reported error.
CYP2D6: Cytochrome P450 2D6 (CYP2D6, Homo sapiens, UniProt P10635)
UniProt P10635, sequence (whole entry, looked up): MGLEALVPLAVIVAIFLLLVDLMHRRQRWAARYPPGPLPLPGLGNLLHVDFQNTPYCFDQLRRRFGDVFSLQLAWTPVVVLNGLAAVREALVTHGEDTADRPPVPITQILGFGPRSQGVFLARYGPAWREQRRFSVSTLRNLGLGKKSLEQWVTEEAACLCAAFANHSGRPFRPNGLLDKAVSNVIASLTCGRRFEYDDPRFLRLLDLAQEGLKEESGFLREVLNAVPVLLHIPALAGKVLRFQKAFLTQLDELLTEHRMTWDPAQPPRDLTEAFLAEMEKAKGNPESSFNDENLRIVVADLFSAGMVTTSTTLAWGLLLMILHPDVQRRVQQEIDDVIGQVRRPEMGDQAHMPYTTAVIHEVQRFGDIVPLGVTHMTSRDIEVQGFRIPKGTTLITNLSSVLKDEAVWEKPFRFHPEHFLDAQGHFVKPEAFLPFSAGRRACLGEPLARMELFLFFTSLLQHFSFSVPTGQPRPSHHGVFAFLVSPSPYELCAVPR
UniProt P00760, sequence (whole entry, looked up): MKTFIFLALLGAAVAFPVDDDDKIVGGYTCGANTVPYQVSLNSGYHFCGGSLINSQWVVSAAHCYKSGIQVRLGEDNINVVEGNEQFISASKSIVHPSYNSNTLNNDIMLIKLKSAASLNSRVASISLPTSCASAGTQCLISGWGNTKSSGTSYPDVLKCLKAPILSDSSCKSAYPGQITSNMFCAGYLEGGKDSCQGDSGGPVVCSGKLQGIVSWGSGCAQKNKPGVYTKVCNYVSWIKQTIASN
UniProt O95342, sequence (whole entry, looked up): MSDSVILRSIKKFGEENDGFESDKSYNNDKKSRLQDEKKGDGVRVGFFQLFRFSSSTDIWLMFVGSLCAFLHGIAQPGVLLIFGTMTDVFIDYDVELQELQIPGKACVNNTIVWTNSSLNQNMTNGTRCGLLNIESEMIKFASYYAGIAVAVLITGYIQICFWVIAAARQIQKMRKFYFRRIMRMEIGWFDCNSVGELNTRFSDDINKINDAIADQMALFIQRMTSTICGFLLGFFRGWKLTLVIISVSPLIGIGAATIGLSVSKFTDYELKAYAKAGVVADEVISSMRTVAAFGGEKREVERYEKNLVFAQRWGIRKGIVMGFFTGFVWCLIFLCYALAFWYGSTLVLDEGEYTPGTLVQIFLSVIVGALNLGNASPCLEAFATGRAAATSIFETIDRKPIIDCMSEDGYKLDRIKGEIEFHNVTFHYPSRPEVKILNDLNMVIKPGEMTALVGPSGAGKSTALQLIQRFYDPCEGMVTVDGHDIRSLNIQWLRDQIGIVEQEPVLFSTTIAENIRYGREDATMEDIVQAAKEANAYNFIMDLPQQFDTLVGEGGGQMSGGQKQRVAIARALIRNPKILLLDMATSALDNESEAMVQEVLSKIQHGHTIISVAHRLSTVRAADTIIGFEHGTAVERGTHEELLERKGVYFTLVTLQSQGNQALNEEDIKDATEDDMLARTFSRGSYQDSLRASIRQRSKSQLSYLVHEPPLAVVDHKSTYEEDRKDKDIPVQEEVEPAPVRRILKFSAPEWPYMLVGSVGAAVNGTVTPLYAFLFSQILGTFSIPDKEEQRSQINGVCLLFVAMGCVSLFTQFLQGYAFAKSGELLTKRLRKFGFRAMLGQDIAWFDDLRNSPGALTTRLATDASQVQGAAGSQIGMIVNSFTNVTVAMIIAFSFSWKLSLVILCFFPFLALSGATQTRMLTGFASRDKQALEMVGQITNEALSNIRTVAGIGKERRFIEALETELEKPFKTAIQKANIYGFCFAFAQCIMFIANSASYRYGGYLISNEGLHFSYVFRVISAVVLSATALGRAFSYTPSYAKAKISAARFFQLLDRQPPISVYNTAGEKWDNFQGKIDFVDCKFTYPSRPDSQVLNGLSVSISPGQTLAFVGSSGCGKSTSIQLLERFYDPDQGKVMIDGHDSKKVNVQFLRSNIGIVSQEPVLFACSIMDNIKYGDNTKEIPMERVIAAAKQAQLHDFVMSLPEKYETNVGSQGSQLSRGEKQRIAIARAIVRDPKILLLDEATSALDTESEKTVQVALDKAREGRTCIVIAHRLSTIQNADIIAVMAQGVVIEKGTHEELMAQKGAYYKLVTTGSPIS
UniProt P02769, sequence (whole entry, looked up): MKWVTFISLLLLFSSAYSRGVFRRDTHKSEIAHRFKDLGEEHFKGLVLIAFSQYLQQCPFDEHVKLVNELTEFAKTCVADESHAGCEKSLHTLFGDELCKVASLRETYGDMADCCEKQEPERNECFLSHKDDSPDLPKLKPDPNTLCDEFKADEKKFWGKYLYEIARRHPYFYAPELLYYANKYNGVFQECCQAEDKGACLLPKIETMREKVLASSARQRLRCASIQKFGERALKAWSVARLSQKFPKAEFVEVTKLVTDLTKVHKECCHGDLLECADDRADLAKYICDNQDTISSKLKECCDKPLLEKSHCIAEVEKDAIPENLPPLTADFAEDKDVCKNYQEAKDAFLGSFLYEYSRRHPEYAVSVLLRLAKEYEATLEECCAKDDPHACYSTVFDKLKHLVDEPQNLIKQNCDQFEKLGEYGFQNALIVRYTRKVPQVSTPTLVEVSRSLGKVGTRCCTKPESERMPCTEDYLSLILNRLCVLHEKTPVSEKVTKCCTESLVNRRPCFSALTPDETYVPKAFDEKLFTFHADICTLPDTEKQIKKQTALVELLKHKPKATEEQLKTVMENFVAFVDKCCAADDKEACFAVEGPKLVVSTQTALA
UniProt P00729, sequence (whole entry, looked up): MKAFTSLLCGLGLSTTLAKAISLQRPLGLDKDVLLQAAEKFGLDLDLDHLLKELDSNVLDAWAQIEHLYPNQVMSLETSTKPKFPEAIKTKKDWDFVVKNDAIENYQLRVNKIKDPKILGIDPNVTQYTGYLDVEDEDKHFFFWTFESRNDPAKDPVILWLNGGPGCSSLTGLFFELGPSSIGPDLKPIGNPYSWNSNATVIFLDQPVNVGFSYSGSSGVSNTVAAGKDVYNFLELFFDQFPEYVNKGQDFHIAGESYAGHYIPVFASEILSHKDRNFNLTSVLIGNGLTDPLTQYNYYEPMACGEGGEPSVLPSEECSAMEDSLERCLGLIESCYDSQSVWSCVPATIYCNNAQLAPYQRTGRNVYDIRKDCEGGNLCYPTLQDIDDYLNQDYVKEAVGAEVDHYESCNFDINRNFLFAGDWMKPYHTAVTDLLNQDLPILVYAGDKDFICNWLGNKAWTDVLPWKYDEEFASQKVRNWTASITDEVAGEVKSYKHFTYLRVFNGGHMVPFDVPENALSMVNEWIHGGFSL

Structure (SMILES) | target or system | assay | system | setting | scale | measurement | value
CC[C@H](C)[C@@H]1NC(=O)[C@H](CC(C)C)NC(=O)[C@@H](NC(=O)[C@H](CCCNC(=N)N)NC(=O)[C@@H](NC(=O)CNC(=O)[C@@H]2CCCN2C(=O)[C@@H]2CCC(=O)NCC(=O)N[C@@H](CO)C(=O)N[C@@H](CCCNC(=N)N)C(=O)NCC(=O)N[C@@H](Cc3c[nH]c4ccccc34)C(=O)NCC(=O)N[C@@H](Cc3ccccc3)C(=O)N2)C(C)C)CSSC[C@@H](C(=O)N[C@@H](CC(=O)O)C(=O)O)NC(=O)[C@H](Cc2c[nH]c3ccccc23)NC1=O | Carboxypeptidase Y (Saccharomyces cerevisiae, UniProt P00729) | substrate, LC-MS | – | 20 h, room temperature | – | proteolytic stability | stable
O=C(CN1C(=O)C2(CCN(C(=O)c3cnc4[nH]ncc4c3)CC2)c2c(Br)cccc21)NCC(F)(F)F | CYP2D6 | enzyme activity, inhibitor | – | – | – | IC50 | 2 µM
O=C1NC2(CC2)COc2ncc(F)cc2[C@H]2COCCN2c2ccn3ncc1c3n2 | – | – | Sprague-Dawley rats, female, blood | oral, 20 mg/kg/day, end of treatment, 4-week subacute toxicity | – | APTT | 12.7 ± 1.3 s
CC(C)C[C@H](NC(=O)CNC(=O)[C@@H]1CCCN1C(=O)[C@@H](NC(=O)[C@@H](NC(=O)CCC(=O)O)C(C)C)C(C)C)C(=O)N[C@@H](CCCCN)C(=O)N1CCC[C@H]1C(=O)N[C@@H](Cc1ccccc1)C(=O)N[C@H](C(=O)N[C@@H](CCCCN)C(=O)NCC(=O)NCC(=O)N[C@@H](Cc1ccc(O)cc1)C(=O)NCC(=O)N[C@@H](CCCNC(=N)N)C(=O)N[C@@H](CCCCN)C(=O)N[C@@H](CCCCN)C(=O)N[C@@H](CCCNC(=N)N)C(=O)N[C@@H](CCCNC(=N)N)C(=O)N[C@@H](CCC(N)=O)C(=O)N[C@@H](CCCNC(=N)N)C(=O)N[C@@H](CCCNC(=N)N)C(=O)N[C@@H](CCCNC(=N)N)C(N)=O)C(C)C | trypsin (pig) | substrate, RP-HPLC | Tris buffer | 2.5 mg/mL, 0.1667 h, pH 8.0, 37 °C | – | degradation | ~30%
C[C@@H]1NC(=O)[C@H](CCCNC(=N)N)NC(=O)[C@H](Cc2ccc3ccccc3c2)NC(=O)[C@H]2CCCCN2C(=O)[C@@H]([C@H](C)O)NC(=O)[C@H](Cc2ccc(F)cc2)NC(=O)[C@@H](Cc2ccc(F)cc2)NC(=O)c2cc3cc(c2)C(=O)NC[C@H](NC(=O)[C@@H](Cc2ccccc2)NC1=O)C(=O)N[C@@H](Cc1ccccc1)C(=O)N[C@@H](Cc1ccc2ccccc2c1)C(=O)N[C@@H](CCCNC(=N)N)C(=O)N[C@@H](CCCNC(=N)N)C(=O)N[C@@H](CCCNC(=N)N)C(=O)N[C@@H](CCCNC(=N)N)C(=O)N[C@H](C(=O)N[C@@H](CCCCN)C(N)=O)CNC3=O | Albumin (ALB, Bos taurus, UniProt P02769) | binding | – | – | – | Kd | ~20 µM
Cc1cc(-c2ccc3ccccc3c2)nnc1NCCN1CCN(C)CC1 | ABCB11 (Homo sapiens, UniProt O95342) | transporter uptake, inhibitor | – | 10 µM | – | inhibition | 23%
CC(C)C[C@H](NC(=O)[C@H](C)NC(=O)CNC(=O)CCCCCNC(=O)C1CC2C=CC1C2)C(=O)N[C@H](C(=O)N1CCC[C@H]1C(=O)N[C@@H](CCCNC(=N)N)C(=O)NCC(=O)N[C@@H](C)C(=O)N[C@@H](CC(=O)O)C(=O)N[C@@H](CO)C(=O)NCC(=O)N[C@@H](CO)C(=O)NCC(N)=O)[C@@H](C)O (stereo partly shown) | α-chymotrypsin | substrate, HPLC | DPBS | 200 µM, 50 min, 37 °C, with: chymotrypsin 1.0 µM | – | cleavage | 56%
O=C(O)c1ccc(-c2nc(-c3ccccc3Cl)c3sccn23)cc1 | Nav1.5 sodium channel | radioligand binding | – | 10 µM | baseline: control | specific binding | 89.7% and 99.5%
CCN(CC)CCOc1ccc(-c2nnn(Cc3ccc(OC)cc3)c2N)cc1 | Cytochrome P450 2B6 (CYP2B6, Homo sapiens, UniProt P20813) | inhibitor | – | – | – | IC50 | > 50 µM
CC(C)C[C@H](NC(=O)[C@H](CC(C)C)NC(=O)[C@H](CCCCN)NC(=O)[C@H](Cc1ccccc1)NC(=O)[C@@H](NC(=O)[C@H](CCCNC(=N)N)NC(=O)[C@@H](N)CCCCN)C(C)C)C(=O)N[C@@H](CCCCN)C(=O)N[C@@H](CCCNC(=N)N)C(=O)N[C@@H](Cc1ccc(O)cc1)C(=O)N[C@@H](Cc1c[nH]c2ccccc12)C(=O)N[C@@H](CCCNC(=N)N)C(=O)N[C@@H](CCC(N)=O)C(=O)N[C@@H](CC(C)C)C(=O)N[C@@H](CCCCN)C(=O)N[C@@H](CCCCN)C(=O)N1CCC[C@H]1C(=O)N[C@H](C(=O)N[C@@H](CCCNC(=N)N)C(=O)NCCOCCOCC(=O)O)C(C)C | Serine protease 1 (PRSS1, Bos taurus, UniProt P00760) | HPLC | – | 1 mg/mL, 30 min, 37 °C, with: enzyme to peptide 50:1 | baseline: untreated peptide | degradation | 14 to 17%
CNC(=O)C1CCCN(C(=O)C2CC3CCC2N3C(=O)[C@@H]2C[C@@H](O)CN2C(=O)NCc2cccc(Cl)c2F)C1 (mixture of isomers) | CYP3A4 (human) | inhibitor, time-dependent inhibition | – | 50 µM, preincubated without NADPH, with: midazolam substrate | baseline: negative control | remaining activity | 108%
CC(=O)NCCCC[C@@H]1NC(=O)[C@H](Cc2c[nH]c3c(C)cccc23)NC(=O)[C@H]([C@@H](C)O)NC(=O)[C@H](CC(N)=O)NC(=O)[C@@H](NC(C)=O)C(C)(C)SSC(C)(C)[C@@H](C(=O)N[C@@H](Cc2ccc(OCCN)cc2)C(=O)N[C@@H](Cc2ccc3ccccc3c2)C(=O)NC2(C(=O)N[C@@H](CCC(=O)O)C(=O)N[C@@H](CC(N)=O)C(=O)N[C@@H](Cc3cccnc3)C(=O)N(C)CC(N)=O)CCOCC2)NC1=O | human alpha-1-acid glycoprotein 0.14% | equilibrium dialysis | – | 0.01 µM | – | fraction unbound | 92.4 ± 4.1%
CN[C@@H]1[C@H](O)[C@H](NC)[C@H]2O[C@]3(O)[C@H](O[C@@H]2[C@H]1O)O[C@H](C)C[C@H]3NC(=O)Cc1ccc(Cl)cn1 | CYP2D6 | – | – | 10 µM | – | inhibition | 5%
